Experimental data collected from several papers.
Each line is one published result; not all experiments were run side by side. Several values in a cell are separate wells, animals, samples, runs or records. Numbers after ± are the reported error.

`Cc1c(-c2ccc(N3CCc4cccc(C(=O)Nc5nc6ccccc6s5)c4C3)nc2C(=O)O)cnn1CC12CC3(C)CC(C)(C1)CC(OCCNCC[C@H](O)CO)(C3)C2` — result for “mean arterial pressure change”: -26% (beagle dog, male, anaesthetised; intravenous infusion, 0.3 mg/kg/min, 60 min; baseline: vehicle).
`CN1CCCC1CCNS(=O)(=O)c1ccc2c(c1)CN(CC1CCCCC1)CC2` (stereo not drawn) has a concentration of 193 ng/g (THY-Tau22 mouse, pons/cerebellum; oral in diet, 0.02% in diet, 6 months, sampled at 8 p.m.).
`Cc1ccc(Sc2ccccc2N2CCNCC2)c(C)c1`: “participants with TEAE” 33.3% (item: Headache; healthy adult women; oral, 10 mg daily, 12 days).
`O=C(O)CCC(=O)O.[2H]C([2H])([2H])Oc1cc(C)c2[nH]ccc2c1CN1CC[C@@H](C2CC2)C[C@H]1c1ccc(C(=O)O)cc1` — result for “subjects with TEAE Diarrhea”: 12.5% (multiple ascending dose; healthy Chinese subjects; 100 mg twice daily).
`C[C@@H]1CCO[C@H]2Cn3cc(C(=O)NCc4ccc(F)cc4F)c(=O)c(O)c3C(=O)N12` gave a drug concentration of 5300 ± 1400 ng/g (Tat+ transgenic mouse, striatum; subcutaneous osmotic pump, dose not given, 5 d).
Under “Irwin test score”, `O=C1NCCc2nc(OCc3cccc(F)c3)ccc21` is recorded as 0 (item: Piloerection; Sprague-Dawley rat male; oral, 100 mg/kg, 30 min; direction not given).
`Cn1cc([C@H]2C[C@H]3CSC(N)=N[C@@]3(c3ccc(F)cc3F)CO2)cn1` has a CSF concentration of 251 nM (male 129/SVE mouse, CSF; subcutaneous, 10 mg/kg, 1 h).
For `[18F]c1ccc(-c2ccc3c(c2)[nH]c2ccncc23)cn1`, the SUV was 1.05 ± 0.514 (microPET/CT imaging; APP/PS1 mouse, AD model, heart; intravenous, 15 min).
The CL/F of `COc1ccc2nc(-c3ccccn3)c(N(C)c3ccc(F)cc3)n2c1` is reported as 944 mL/min/kg and 1170 mL/min/kg (male CD-1 mouse, fasted, plasma; oral, 50 mg/kg, added: 1-aminobenzotriazole 50 mg/kg).
`O=C1OC2(c3ccc(O)cc3Oc3cc(O)ccc32)c2ccccc21` has an encapsulation efficiency of roughly 20% (PSP-2 condensates in DMEM; concentration not given, added: cargo 5 µM).
For `CNC(=O)c1ccc(-c2cnc3ncc(Cc4ccc5ncccc5c4)n3n2)cc1F`, “Diarrhoea dose reduction/interruption” read 1% (Japanese patients; oral, 400 mg, grade 3/4).
The DHEA-S level of `N#Cc1ccc2c(c1)[C@H]1CCCN(C(=O)c3ccc4[nH]cnc4c3)[C@H]1C2` is reported as 5.9 µmol/L (human males; 80 mg, end of trial).
The ECG observations of `CCOc1c([C@H](C)n2nc(C)c3c(N)ncnc32)cc(Cl)c(F)c1[C@@H]1CNC(=O)C1` is reported as 95.8% (item: QTcF ≤450 ms; previously treated B-cell malignancy; oral, 20 mg once daily, overall population).
For `O=C(Nc1nc2cccc(-c3ccc(CN4CCS(=O)(=O)CC4)cc3)n2n1)C1CC1`, “treatment-emergent adverse events” read 0% (item: body temperature increased; human rheumatoid arthritis patients; oral, 75 mg once daily, 4 weeks, regardless of relatedness).
For `COc1ccc(CNc2nc(-c3ccc(C(=O)O)cc3)nc3c2c2ccccc2n3C)cc1Cl`, the body weight was 23.8 g and 23.9 g and 22.7 g and 24.4 g (NSG mice; dose not given, day 15 of treatment).
For `OC[C@H]1OC(O)[C@H](O)[C@@H](O)[C@@H]1O` (stereo partly drawn), the osmolality was 12 mOsmol/kg (aqueous solution; 15 mM, added: glucosamine).
Under “patients with immune-mediated AE”, `Cc1cc(-c2nnc(N)nc2-c2ccc(F)cc2)cc(Cl)n1` is recorded as 0% (item: Arthritis; IO-naive mCRPC patients, male; oral, dose not given, treatment-related, grade 2).
`Cc1ccc([C@@H]2O[C@H](CO)[C@@H](O)[C@H](O)[C@H]2O)cc1Cc1ccc(-c2ccc(F)cc2)s1`: “urinary sodium excretion change” 61.8 mEq (Japanese type 2 diabetes patients; 100 mg, day 4, 24 h urine collection; baseline: baseline).
